{"data": "Experimental data pooled from the literature", "note": "Parts stem from different laboratories: compare values within a part only. Substitutions count along the parent as printed.", "UniProt P61077, sequence (whole entry, looked up)": "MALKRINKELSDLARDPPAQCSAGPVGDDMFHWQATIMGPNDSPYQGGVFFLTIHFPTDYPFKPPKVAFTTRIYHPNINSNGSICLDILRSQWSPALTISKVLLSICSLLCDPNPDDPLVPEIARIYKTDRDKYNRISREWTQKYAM"}
{"data": "Block 1", "target": "Histone acetyltransferase KAT6A, winged helix 1, GST fusion (KAT6A, Homo sapiens, UniProt Q92794, residues 1-85)", "method": "protein binding microarray", "form": "double-stranded DNA, one strand shown", "sample": "in vitro", "tested at": "not given", "setting": "8-mer, flanks averaged, mean of 2 arrays, mostly near background", "relative to": "not given", "direction": "higher = stronger binding", "Construct (chain)": "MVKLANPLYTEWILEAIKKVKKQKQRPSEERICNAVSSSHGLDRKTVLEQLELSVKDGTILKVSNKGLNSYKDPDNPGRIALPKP"}
{"Sequence": "GGTGCTGA", "E-score": -0.0544}
{"Sequence": "CCTCGTCG", "E-score": 0.0657}
{"Sequence": "AATCTTTG", "E-score": -0.194}
{"Sequence": "GAGGATGC", "E-score": 0.0186}
{"Sequence": "GCGTTATA", "E-score": 0.0575}
{"Sequence": "CATCACGG", "E-score": 0.169}
{"Sequence": "ATATAGGC", "E-score": -0.0194}
{"Sequence": "GCCTGATA", "E-score": 0.00556}
{"data": "Block 2", "target": "CCNA2, cyclin fold, Cln2 fusion (human)", "method": "yeast growth competition, sequencing", "sample": "yeast", "setting": "strong parent motif", "relative to": "not given", "direction": "higher = stronger binding", "parent": "PKN2 docking peptide (human); VSAVQKLDFSDTM"}
{"Variant": "M13I", "normalised enrichment score": 2.62}
{"Variant": "A3H", "normalised enrichment score": 0.712}
{"Variant": "V1R", "normalised enrichment score": 3.35}
{"Variant": "V4N", "normalised enrichment score": 0.512}
{"Variant": "L7K", "normalised enrichment score": -0.11}
{"Variant": "V4W", "normalised enrichment score": 1.05}
{"Variant": "S10P", "normalised enrichment score": 1.18}
{"Variant": "A3T", "normalised enrichment score": -0.0364}
{"data": "Other studies, line by line"}
{"Sequence": "AMYLQENGIDCPKCKFSYALARGGCMHFHCTQCRHQFCSGCYNAFYAKNKC (RNF31 RING domain (UniProt Q96EP0))", "target": "UBE2D3 UBC core domain (UniProt P61077)", "test": "yeast two-hybrid", "system": "yeast", "conditions": "mostly zero background", "how to read": "relative to: not given, higher = stronger interaction", "measurement": "lacZ reporter activity", "result": 0}
{"Sequence": "DSDDWLNKY", "target": "HLA class I histocompatibility antigen, A alpha chain, allele A*80:01 (Homo sapiens, UniProt P04439)", "test": "peptide-MHC binding", "system": "peptide", "conditions": "concentration not given", "measurement": "binding", "result": "inactive"}
{"note": "For quick reference, copied from above (block 2):"}
{"Variant": "V1R", "normalised enrichment score": 3.35}
{"Variant": "M13I", "normalised enrichment score": 2.62}
{"Variant": "V4N", "normalised enrichment score": 0.512}
